Results of several laboratories.
Numbers after ± are the reported error.

SMILES	target	test	test system	conditions	IC50
O=C(NO)c1ccc(CN2c3ccccc3Oc3cc(C(=O)Nc4ccc(C(=O)c5ccccc5)cc4)ccc32)cc1	HeLa nuclear HDACs	enzyme activity, inhibitor	–	added: Boc-Lys(Ac)-AMC	1.91 ± 0.76 µM
Cc1ccc2c(=O)n(Cc3cn(Cc4ccc(/C=C/C(=O)NO)cc4)nn3)cnc2c1	HDAC	enzyme activity, inhibitor, fluorogenic	HeLa nuclear extract	30 min, 37 °C	0.939 µM
c1cnc(NCCCn2ccnc2)cn1	Fe-SOD (Leishmania braziliensis)	inhibitor	Leishmania braziliensis	promastigotes	0.09 µM
COc1ccc([C@@]23Oc4cc(OC)cc(OC)c4[C@]2(O)[C@H](O)[C@H](C(=O)N(C)C)[C@H]3c2ccccc2)cc1	HSF1, human	heat shock reporter (HSE-driven GFP), inhibitor, dual reporter cell	–	added: MG132	~0.05 µM
NCc1cccc(C2CCN(C(=O)c3cccc(OCC(=O)C4(O)CCC4)c3)CC2)c1	tryptase, human	enzyme activity, inhibitor	HMC1	2 h, added: A23187 1 µM	0.433 µM
O=C(/C=C/c1ccc(Cn2cc(Cn3cnc4cc(F)ccc4c3=O)nn2)cc1)NO	HDAC	enzyme activity, inhibitor, fluorogenic	HeLa nuclear extract	30 min, 37 °C	0.464 µM
O=C(Nc1ccc(Cl)cc1)C1CCN(Cc2ccccc2)C1 (stereo not shown)	Nav1.4, Pelophylax lessonae	sodium current, use-dependent blocker, vaseline gap voltage clamp	skeletal muscle fibres	10 Hz pulse trains	11.9 ± 1 µM
O=C(NO)c1ccc(CN2c3ccccc3Oc3cc(Br)ccc32)cc1	HeLa nuclear HDACs	enzyme activity, inhibitor	–	added: Boc-Lys(Ac)-AMC	0.53 ± 0.01 µM
OCCNCCO	neuronal nicotinic acetylcholine receptor rat	ACh-evoked current, antagonist, whole-cell voltage clamp	rat intracardiac neurons	holding -90 mV, added: ACh 100 µM	2500 µM
CCCS(=O)(=O)Nc1ccc(F)c(C(=O)c2c[nH]c3ncc(-c4ccc(Cl)cc4)cc23)c1F	MEK phospho-Ser217/221	MEK phosphorylation, inhibitor	mouse A-375 xenograft, tumour	–	16.8 µg/mL
CC(C)/C=C/c1c(O)cc(/C=C/c2ccc(O)c(O)c2)cc1O	NF-κB (human)	reporter gene, inhibitor	SW1353	added: PMA	12 µg/mL
CC(C)N1C(=O)N(c2ccccc2)CS/C1=N\C(C)(C)C	mouse monoclonal antibody 19F2	antibody binding, indirect competitive ELISA	–	pH 5.5	0.0018 µg/mL
CC(C)/C=C/c1c(O)cc(/C=C/c2ccccc2)cc1O	NF-κB (human)	reporter gene, inhibitor	SW1353	added: PMA	> 25 µg/mL
Cc1ccc2ncn(Cc3cn(Cc4ccc(C(=O)NO)cc4)nn3)c(=O)c2c1	HDAC	enzyme activity, inhibitor, fluorogenic	HeLa nuclear extract	30 min, 37 °C	0.425 µM
Cc1c(C)c(NC(=O)C2CCN(Cc3ccccc3)C2)c(C)c(C)c1Cl (stereo not shown)	Nav1.4, Pelophylax lessonae	sodium current, use-dependent blocker, vaseline gap voltage clamp	skeletal muscle fibres	10 Hz pulse trains	11.1 ± 1.3 µM
Clc1cccc(Nc2nnc(-c3ccccc3)c3ccccc23)c1	phosphodiesterase human	cGMP hydrolysis, fluorescence polarization	HT-29 cell lysate	–	4 µM
Oc1ccc(/C=C/c2cc(O)cc(O)c2)cc1	NF-κB (human)	reporter gene, inhibitor	SW1353	added: PMA	18.5 µg/mL
CN1CCN(c2ccc3[nH]c(-c4ccc5[nH]c(-c6ccc(O)cc6)nc5c4)nc3c2)CC1	r(CUG)12 RNA-MBNL1 complex	MBNL1 displacement from r(CUG)12 RNA, inhibitor, qTR-FRET	–	–	> 1000 µM
O=C(/C=C/c1ccc(Cn2cc(Cn3cnc4ccc(F)cc4c3=O)nn2)cc1)NO	HDAC	enzyme activity, inhibitor, fluorogenic	HeLa nuclear extract	30 min, 37 °C	0.463 µM
Cc1cccc(C)c1NC(=O)C1CCCN(Cc2ccccc2)C1 (stereo not shown)	Nav1.4, Pelophylax lessonae	sodium current, use-dependent blocker, vaseline gap voltage clamp	skeletal muscle fibres	2 Hz pulse trains	12.5 ± 0.8 µM

SMILES	target	test	test system	conditions	IC50
Oc1ccc(/C=C/c2cc(O)cc(O)c2)cc1	human ornithine decarboxylase	enzyme activity, inhibitor	T24	added: TPA	8.8 ± 1.18 µM
O=C(Nc1ccccc1)C1CCN(Cc2ccccc2)C1 (stereo not shown)	Nav1.4, Pelophylax lessonae	sodium current, use-dependent blocker, vaseline gap voltage clamp	skeletal muscle fibres	2 Hz pulse trains	17.6 ± 2.4 µM
Oc1ccc(/C=C/c2ccccc2)cc1O	NF-κB (human)	reporter gene, inhibitor	SW1353	added: PMA	> 25 µg/mL
O=C(NO)c1ccc(Cn2cc(Cn3cnc4ccc(F)cc4c3=O)nn2)cc1	HDAC	enzyme activity, inhibitor, fluorogenic	HeLa nuclear extract	30 min, 37 °C	0.263 µM
CO[C@H]1O[C@@H]2CO[C@@](C)(C(=O)O)O[C@@H]2[C@H](O)[C@H]1O (single isomer, unassigned)	human IgM WEA	precipitation, inhibitor, quantitative precipitin inhibition	–	added: agar	0.2 µM
O=C(NO)c1ccc(Cn2cc(Cn3cnc4cc(Br)ccc4c3=O)nn2)cc1	HDAC	enzyme activity, inhibitor, fluorogenic	HeLa nuclear extract	30 min, 37 °C	0.142 µM
CC(C)(O)C(O)Cc1c(O)cc(/C=C/c2ccc(O)cc2)cc1O (stereo not shown)	NF-κB (human)	reporter gene, inhibitor	SW1353	added: PMA	> 25 µg/mL
O=C(NO)c1ccc(CN2c3ccccc3Oc3cc(C(=O)Nc4ccccc4)ccc32)cc1	HeLa nuclear HDACs	enzyme activity, inhibitor	–	added: Boc-Lys(Ac)-AMC	0.24 ± 0.04 µM
Cc1cccc(C)c1NC(=O)C1CN(Cc2ccccc2)CCN1 (stereo not shown)	Nav1.4, Pelophylax lessonae	sodium current, use-dependent blocker, vaseline gap voltage clamp	skeletal muscle fibres	2 Hz pulse trains	8.9 ± 1.3 µM
CC(C)(O)C(O)Cc1cc(/C=C/c2cc(O)cc(O)c2)ccc1O (stereo not shown)	NF-κB (human)	reporter gene, inhibitor	SW1353	added: PMA	> 25 µg/mL
CCCCCCN1C(=O)C(O)=C(C(=O)c2ccc(C)cc2)C1c1ccc(OC)cc1OC (stereo not shown)	CXCR1/2 (human)	calcium flux, antagonist	human neutrophils	added: IL-8 25 nM	6.2 ± 2.1 µM
COc1cccc(/C=C/c2ccc(O)cc2)c1	NF-κB (human)	reporter gene, inhibitor	SW1353	added: PMA	19.5 µg/mL
Cc1cccc(C)c1NC(=O)C1CCCCN1Cc1ccccc1 (stereo not shown)	Nav1.4, Pelophylax lessonae	sodium current, use-dependent blocker, vaseline gap voltage clamp	skeletal muscle fibres	2 Hz pulse trains	98.4 ± 7.5 µM
O=C(NO)c1ccc(Cn2cc(Cn3cnc4ccc(Br)cc4c3=O)nn2)cc1	HDAC	enzyme activity, inhibitor, fluorogenic	HeLa nuclear extract	30 min, 37 °C	0.188 µM
Cc1cccc(C)c1NC(=O)C1CCN(Cc2ccccc2)C1 (racemic)	Nav1.4, Pelophylax lessonae	sodium current, use-dependent blocker, vaseline gap voltage clamp	skeletal muscle fibres	10 Hz pulse trains	2.2 ± 0.1 µM
O=C(/C=C/c1ccc(Cn2cc(Cn3cnc4ccc(Cl)cc4c3=O)nn2)cc1)NO	HDAC	enzyme activity, inhibitor, fluorogenic	HeLa nuclear extract	30 min, 37 °C	0.234 µM
COc1cc(/C=C/c2ccccc2)cc(OC)c1	NF-κB (human)	reporter gene, inhibitor	SW1353	added: PMA	> 25 µg/mL
CC(C)(O)C(=O)C(=O)Nc1cccc(C(=O)N2CCC(c3cccc(CN)c3)CC2)c1	tryptase, human	enzyme activity, inhibitor	HMC1	2 h, added: A23187 1 µM	0.052 µM
Cc1cccc(C)c1NC(=O)C1CCCN1Cc1ccccc1 (racemic)	Nav1.4, Pelophylax lessonae	sodium current, use-dependent blocker, vaseline gap voltage clamp	skeletal muscle fibres	2 Hz pulse trains	49.7 ± 7.6 µM
O=C(NO)c1ccc(CN2c3ccccc3Oc3ccccc32)cc1	HeLa nuclear HDACs	enzyme activity, inhibitor	–	added: Boc-Lys(Ac)-AMC	0.54 ± 0.05 µM
